Results gathered from unrelated publications.
Each numbered part is a random draw from the data of one study; scales do not carry over between parts. Positions count from the first letter of the parent shown.

Block 1 — technique: RNA Bind-n-Seq; form: RNA; medium: in vitro; tested at: 365 nM; reference: no-protein control; direction: higher = stronger binding
Target: RNA binding protein fox-1 homolog 2, RRM domain, GST-SBP tag (RBFOX2, Homo sapiens, UniProt O43251-10, residues 100-194)
Setting: natural RNA segment, single round, ends assumed
Construct (chain): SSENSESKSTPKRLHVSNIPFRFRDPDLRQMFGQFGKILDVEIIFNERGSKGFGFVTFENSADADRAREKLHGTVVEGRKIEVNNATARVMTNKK
Sequence | RBNS enrichment (R)
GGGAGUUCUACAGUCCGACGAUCUGUCUGACCAAGGUCAAGGGGCAGGUGCAGAGGUGGCAGGGAUGGCUCCGAAGCCAGAAAUGCCUUAAACUGCAACGUCCCGUCCCUUCCCCACCCCCAUCCCAUCCCCAUGGAAUUCUCGGGUGCCAA | 0.182
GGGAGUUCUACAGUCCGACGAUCAUGGGUACAGAACAGUUUUGGAAUGAACAUUGCCAGUGCUACAAUUGCACUAGUGGGGACUGCUUUUCUCUCACUAAAUAUAGCAGUUAAUAUCCAGUCAUUAAGGAGUUUGGAAUUCUCGGGUGCCAA | 0.53
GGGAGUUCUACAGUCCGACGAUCUCACUGUGCCAGAGCAAGCACGCUGAGAAGGCUAGUCUCCAUAGUUGAUGGUUAAUGUUACUUCCACAAAAUAUGUGAAUUUGCUGCUUCUGAGAGGCAAUGUGAAAGAGUGGAAUUCUCGGGUGCCAA | 0.847
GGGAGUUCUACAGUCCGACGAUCAAGCUGUUAUAAAUAUAUAUUAUAUAAAUAUAUUAAAAAGGAAAAUGUUUCAGAUGUUUAUUUGUAUAAUUACUUGAUUCACACAGUGAGAAAAAAUGAAUGUAUUCCUGUGGAAUUCUCGGGUGCCAA | 3.71
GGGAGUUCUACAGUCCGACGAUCCUGGAAAGCGGCCAAGUUCAUCUUCUCACUGUGAGUGGAAGCUGGAUCGGGCCCCCGUAGUCCUGGCAGCCCUGUUGUCUGGAGGGUUCUUGUUGUCCCUCCCAUUAGCCUGGAAUUCUCGGGUGCCAA | 0.355
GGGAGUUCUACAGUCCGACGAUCUUAAAUGAUGUAAUUCCCACUGUAAUAGCAUAGGGAUUUUGGAAGCAGCUGCUGGUGGCUUGGGACAUCAGUGGGGCCAAGGGUUCUCUGUCCCUGGUUCAACUGUGAUUUGGAAUUCUCGGGUGCCAA | 0.657
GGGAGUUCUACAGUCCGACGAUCUUCCAGCAGACCGGGUGCAUCCCUUUUCCUAAUACCUAAUAAAGAGCUUGACAGUGAUAUCCGCCAUCUGCCUUGGGGUCUGAGAAUAAGCGGGAGUUAGAGGGAUGUCUUGGAAUUCUCGGGUGCCAA | 0.388
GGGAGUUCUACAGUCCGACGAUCCACUCACUCCUGUUCCCUUAUUCUUCAUUCCCAGUAAUUCCCUACCAAAUGGUGGGGACCCUGAGCCCAGCUCUGACCAGGUAGAGCCUGUGCAGCCUGGGCUGCUGUCAUGGAAUUCUCGGGUGCCAA | 0.335

Block 2 — technique: universal PBM; form: double-stranded DNA, one strand shown; medium: in vitro; tested at: not given; direction: higher = stronger binding
Target: Sal-like protein 4, full length isoform B (SALL4, Homo sapiens, UniProt Q9UJQ4-2, residues 1-616)
Setting: 8-mer, flanks averaged, mean of replicates
Sequence | E-score
AGTATTCC | 0.0733
AGGCATTG | -0.0449
AAGGTACA | 0.101
GCTCTACC | -0.192
AGGAACCA | -0.124
CCTTACCA | 0.106
CAACAATG | 0.0413
CGGACACA | -0.222

Block 3 — technique: RNAcompete; form: RNA; medium: in vitro; tested at: 20 nM; setting: 7-mer, probes averaged, single round; reference: mean of 7-mers; direction: higher = stronger binding
Target: PABPC1L2, full length, GST fusion (mouse, UniProt A0ABA7IW68)
Residues (chain): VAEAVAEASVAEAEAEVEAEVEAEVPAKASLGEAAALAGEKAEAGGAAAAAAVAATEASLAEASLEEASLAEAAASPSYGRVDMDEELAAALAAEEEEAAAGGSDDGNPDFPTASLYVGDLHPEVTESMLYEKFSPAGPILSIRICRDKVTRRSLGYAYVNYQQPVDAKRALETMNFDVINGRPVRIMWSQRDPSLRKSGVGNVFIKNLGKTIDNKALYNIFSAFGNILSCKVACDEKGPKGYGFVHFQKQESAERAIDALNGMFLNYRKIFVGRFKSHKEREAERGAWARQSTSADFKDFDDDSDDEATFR
Sequence | 7-mer Z-score
CCGCGUG | -0.213
AUUGUGC | -0.258
GCUAAAU | 0.341
AUCUUUC | -0.315
GUUUACC | -0.382
CGUAAUG | -0.0935
GGUCAAG | 0.0642
GACCCGG | -0.237

Single results of other studies
Starting sequence: PafA, mature enzyme, eGFP fusion (Elizabethkingia meningoseptica, UniProt Q9KJX5); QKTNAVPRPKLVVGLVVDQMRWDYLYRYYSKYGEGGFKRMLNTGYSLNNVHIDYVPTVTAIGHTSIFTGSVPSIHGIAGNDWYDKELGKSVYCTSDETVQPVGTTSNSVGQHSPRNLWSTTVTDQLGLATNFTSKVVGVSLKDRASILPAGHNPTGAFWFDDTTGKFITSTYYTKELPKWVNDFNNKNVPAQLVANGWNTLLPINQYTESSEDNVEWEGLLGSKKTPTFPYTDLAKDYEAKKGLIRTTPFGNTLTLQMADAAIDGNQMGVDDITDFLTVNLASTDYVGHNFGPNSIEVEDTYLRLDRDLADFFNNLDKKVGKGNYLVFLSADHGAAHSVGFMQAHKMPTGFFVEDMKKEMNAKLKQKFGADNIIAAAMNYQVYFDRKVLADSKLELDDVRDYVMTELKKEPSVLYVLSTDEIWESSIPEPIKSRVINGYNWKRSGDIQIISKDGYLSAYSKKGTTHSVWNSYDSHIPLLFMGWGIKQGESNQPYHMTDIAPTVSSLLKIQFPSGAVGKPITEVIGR
Variant | target | test | test system | setting | how to read | measurement | value
T105G | tungstate, free oxyanion | microfluidic competitive inhibition | in vitro, cell-free expressed | not given, derived from inhibition constants, unchanged parent 2230 nM | lower = stronger binding | oxyanion analog dissociation constant | 1.89 µM

For quick reference, copied from above (block 2):
Sequence | E-score
CCTTACCA | 0.106
AGGAACCA | -0.124
